# Experimental data collected from several papers.
# Compare with care: the assays were run in different laboratories. Several values in a cell are separate wells, animals, samples, runs or records.
# Chain of UniProt Q80YA3 (whole entry, looked up): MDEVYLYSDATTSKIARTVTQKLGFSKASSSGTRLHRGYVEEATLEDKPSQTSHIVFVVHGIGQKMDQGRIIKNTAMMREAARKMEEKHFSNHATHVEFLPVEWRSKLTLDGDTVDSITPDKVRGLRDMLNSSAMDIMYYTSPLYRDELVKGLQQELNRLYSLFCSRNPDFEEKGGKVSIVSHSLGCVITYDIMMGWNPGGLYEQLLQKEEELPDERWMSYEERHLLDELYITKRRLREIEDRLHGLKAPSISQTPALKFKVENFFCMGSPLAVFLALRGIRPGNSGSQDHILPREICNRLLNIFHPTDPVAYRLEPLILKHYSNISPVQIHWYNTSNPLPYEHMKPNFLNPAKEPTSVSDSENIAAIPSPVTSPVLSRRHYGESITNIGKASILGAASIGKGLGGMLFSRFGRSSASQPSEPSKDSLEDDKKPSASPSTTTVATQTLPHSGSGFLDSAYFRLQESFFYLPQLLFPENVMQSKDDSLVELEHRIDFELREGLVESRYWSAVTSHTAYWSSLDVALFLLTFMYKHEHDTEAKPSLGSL
# Chain of UniProt Q9UM07 (whole entry, looked up): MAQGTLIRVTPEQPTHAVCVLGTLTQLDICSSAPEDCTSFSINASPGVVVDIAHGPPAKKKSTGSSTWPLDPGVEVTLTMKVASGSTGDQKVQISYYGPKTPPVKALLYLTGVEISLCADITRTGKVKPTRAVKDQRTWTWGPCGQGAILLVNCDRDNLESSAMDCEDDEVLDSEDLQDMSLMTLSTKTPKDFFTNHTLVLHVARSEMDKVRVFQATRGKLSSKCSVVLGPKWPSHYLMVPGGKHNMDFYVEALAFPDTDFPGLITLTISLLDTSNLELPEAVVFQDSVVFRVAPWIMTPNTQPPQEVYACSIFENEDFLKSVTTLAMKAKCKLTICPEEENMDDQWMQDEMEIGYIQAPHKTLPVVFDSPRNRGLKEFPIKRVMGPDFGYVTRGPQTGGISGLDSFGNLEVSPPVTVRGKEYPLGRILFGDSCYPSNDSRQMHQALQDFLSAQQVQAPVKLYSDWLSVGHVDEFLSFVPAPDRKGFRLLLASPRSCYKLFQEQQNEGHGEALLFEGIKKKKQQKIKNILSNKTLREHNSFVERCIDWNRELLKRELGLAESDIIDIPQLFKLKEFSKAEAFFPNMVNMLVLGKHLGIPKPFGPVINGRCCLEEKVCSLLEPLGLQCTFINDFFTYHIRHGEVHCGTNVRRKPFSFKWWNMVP
# Chain of UniProt Q6DWJ6 (whole entry, looked up): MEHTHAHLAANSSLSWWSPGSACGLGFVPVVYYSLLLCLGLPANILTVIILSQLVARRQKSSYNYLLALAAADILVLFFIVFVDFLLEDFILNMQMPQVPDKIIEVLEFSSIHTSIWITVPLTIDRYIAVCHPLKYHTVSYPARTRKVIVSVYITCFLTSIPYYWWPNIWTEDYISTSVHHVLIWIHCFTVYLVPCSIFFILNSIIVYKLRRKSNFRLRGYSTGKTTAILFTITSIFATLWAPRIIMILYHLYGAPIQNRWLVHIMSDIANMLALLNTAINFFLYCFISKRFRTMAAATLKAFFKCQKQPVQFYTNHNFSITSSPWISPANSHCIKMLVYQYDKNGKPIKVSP
# Chain of UniProt P45985 (whole entry, looked up): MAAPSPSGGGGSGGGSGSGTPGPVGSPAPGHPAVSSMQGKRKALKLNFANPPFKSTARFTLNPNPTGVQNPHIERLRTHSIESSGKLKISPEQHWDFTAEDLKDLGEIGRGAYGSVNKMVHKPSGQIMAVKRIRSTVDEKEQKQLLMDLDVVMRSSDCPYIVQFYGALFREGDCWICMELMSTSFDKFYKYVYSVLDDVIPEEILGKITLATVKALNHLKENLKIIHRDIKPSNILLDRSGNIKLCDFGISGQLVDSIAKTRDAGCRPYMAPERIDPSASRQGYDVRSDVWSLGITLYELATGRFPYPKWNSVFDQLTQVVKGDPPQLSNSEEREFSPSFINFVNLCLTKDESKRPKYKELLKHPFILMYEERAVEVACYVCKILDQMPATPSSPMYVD
# Chain of UniProt Q16512 (whole entry, looked up): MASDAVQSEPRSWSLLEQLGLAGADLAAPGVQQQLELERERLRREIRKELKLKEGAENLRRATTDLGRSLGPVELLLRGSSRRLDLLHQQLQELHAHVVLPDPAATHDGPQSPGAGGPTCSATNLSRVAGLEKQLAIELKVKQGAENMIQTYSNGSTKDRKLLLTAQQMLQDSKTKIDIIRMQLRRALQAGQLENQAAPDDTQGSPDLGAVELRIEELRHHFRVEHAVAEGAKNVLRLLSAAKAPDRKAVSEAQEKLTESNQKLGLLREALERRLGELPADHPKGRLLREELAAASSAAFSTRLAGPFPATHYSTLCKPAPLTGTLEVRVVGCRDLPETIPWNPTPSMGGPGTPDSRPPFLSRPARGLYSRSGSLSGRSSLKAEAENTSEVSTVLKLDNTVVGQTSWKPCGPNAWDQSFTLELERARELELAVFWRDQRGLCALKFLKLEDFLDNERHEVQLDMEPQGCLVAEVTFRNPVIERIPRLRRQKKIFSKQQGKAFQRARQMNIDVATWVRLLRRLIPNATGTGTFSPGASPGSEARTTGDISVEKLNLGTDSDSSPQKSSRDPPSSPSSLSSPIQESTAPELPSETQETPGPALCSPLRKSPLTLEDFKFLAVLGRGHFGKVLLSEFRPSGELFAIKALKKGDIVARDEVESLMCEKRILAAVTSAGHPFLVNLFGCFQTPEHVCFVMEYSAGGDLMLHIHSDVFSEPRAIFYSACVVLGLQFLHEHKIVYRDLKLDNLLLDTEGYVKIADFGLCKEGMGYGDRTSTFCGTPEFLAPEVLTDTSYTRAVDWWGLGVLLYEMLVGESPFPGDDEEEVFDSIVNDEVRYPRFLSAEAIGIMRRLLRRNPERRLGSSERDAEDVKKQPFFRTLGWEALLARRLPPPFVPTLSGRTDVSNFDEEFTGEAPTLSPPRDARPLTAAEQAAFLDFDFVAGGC
# Chain of UniProt P00519 (whole entry, looked up): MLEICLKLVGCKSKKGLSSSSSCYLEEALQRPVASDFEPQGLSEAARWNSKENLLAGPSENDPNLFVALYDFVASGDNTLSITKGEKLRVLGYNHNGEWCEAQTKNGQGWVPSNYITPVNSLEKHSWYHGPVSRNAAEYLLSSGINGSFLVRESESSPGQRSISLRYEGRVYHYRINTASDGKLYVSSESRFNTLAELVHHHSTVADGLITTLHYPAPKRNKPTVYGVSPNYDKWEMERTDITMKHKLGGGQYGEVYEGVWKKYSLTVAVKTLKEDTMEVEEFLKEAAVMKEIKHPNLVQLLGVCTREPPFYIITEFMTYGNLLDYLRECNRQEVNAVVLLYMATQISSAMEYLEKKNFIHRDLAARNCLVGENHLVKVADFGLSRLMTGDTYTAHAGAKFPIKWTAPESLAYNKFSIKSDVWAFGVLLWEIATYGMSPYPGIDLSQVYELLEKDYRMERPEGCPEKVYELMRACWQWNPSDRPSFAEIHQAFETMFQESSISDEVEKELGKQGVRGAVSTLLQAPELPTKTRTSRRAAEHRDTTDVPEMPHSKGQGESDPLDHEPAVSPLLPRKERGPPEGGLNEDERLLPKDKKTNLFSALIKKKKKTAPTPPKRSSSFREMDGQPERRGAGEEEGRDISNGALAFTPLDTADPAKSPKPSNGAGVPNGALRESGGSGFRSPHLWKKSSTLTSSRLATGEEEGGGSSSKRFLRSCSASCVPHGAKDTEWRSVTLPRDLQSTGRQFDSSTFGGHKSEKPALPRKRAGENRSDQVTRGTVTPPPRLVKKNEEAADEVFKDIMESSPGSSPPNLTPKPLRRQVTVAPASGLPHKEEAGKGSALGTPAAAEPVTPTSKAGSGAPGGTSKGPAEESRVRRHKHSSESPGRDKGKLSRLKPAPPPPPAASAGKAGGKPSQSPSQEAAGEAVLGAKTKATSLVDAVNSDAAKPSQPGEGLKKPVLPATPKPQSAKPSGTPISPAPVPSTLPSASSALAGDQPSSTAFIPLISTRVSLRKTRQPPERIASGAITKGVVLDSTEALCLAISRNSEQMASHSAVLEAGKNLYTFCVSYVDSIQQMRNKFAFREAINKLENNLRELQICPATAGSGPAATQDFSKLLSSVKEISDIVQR
# Chain of UniProt P0A988 (whole entry, unmodified, looked up): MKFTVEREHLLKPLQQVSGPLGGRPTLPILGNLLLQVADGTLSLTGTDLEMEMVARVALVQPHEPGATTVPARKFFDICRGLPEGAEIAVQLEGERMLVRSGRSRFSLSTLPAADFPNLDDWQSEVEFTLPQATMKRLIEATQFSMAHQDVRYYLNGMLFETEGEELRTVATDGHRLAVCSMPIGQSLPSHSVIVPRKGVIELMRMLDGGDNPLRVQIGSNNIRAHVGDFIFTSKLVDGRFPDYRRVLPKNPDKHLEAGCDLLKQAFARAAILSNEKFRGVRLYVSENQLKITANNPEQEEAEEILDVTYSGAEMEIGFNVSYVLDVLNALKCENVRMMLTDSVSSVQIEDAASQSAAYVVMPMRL
# Chain of UniProt P37231 (whole entry, looked up): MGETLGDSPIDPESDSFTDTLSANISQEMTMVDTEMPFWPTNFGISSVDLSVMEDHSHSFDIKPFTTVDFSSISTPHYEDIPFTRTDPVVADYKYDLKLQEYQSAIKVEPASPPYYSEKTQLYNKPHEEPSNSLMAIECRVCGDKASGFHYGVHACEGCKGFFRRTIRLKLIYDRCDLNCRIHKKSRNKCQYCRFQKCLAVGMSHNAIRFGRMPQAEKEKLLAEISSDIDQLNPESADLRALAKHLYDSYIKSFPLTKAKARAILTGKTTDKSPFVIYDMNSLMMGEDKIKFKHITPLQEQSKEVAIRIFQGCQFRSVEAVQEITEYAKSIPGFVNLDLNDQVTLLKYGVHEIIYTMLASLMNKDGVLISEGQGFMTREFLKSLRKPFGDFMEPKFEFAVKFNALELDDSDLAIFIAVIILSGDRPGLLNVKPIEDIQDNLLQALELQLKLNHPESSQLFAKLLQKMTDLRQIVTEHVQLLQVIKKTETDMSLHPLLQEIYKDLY
Compound,target,assay,test system,conditions,how to read,measurement,value
O=C(N[C@@H]1c2ccccc2C[C@H]1N1CCCC1)c1ccc(-c2ccnc3[nH]ccc23)nc1,"Dual specificity mitogen-activated protein kinase kinase 4 (MAP2K4, Homo sapiens, UniProt P45985)","binding, competition with immobilised ligand",,3 µM,,remaining binding,56%
Cc1cc(C)nc(Sc2nc3sccn3c2[N+](=O)[O-])n1,"Procathepsin L (CTSL, Homo sapiens, UniProt P07711)",FRET,,,,Hill slope,1.34
O=C(CN1CN(c2ccccc2)C2(CCN(C(=O)c3cnc4[nH]ncc4c3)CC2)C1=O)NCC(F)(F)F,"Bone morphogenetic protein receptor type-2 (BMPR2, Homo sapiens, UniProt Q13873)",inhibitor,,concentration not given,,inhibition,< 50%
CS(C)(=O)=Nc1ccc(-c2ccc(-c3nc4cc(O[C@@H]5CO[C@H]6[C@@H]5OC[C@H]6O)[nH]c4cc3F)cc2)cc1,"Hepatocyte growth factor receptor (MET, Homo sapiens, UniProt P08581, D1228H)","enzyme activity, inhibitor",,10 µM,,inhibition,-32%
CN(C)[C@H]1C[C@@]23CC[C@@]4(O2)C(=CC[C@]2(C)[C@@H](c5ccc6ccncc6c5)CC[C@H]24)C=C3[C@@H](O)[C@@H]1O,"Serine/threonine-protein kinase N1 (PKN1, Homo sapiens, UniProt Q16512)","ATP probe labelling, inhibitor, KiNativ profiling",,0.1 µM,,inhibition,-3.5%
O=C(Cc1ccc(Br)cc1)N1CCN(CC(OCc2ccc3ccccc3c2)c2ccc(Cl)cc2Cl)CC1 (centres unmarked),"Serine/threonine-protein kinase ULK1 (ULK1, Homo sapiens, UniProt O75385)","enzyme activity, inhibitor, ADP detection",,0.1 µM,,activity vs control,149%
COc1ccccc1-c1n[nH]c2nc(N[C@H]3CC[C@H](NS(=O)(=O)CC(C)C)CC3)ncc12,"cdc2-related kinase 12 (Leishmania donovani, UniProt A0A3S7WQK2)",kinobead competition pull-down,"Leishmania donovani, cell extract","0.4 µM, unit not given",relative to: vehicle,remaining binding,0.26
CCOC(=O)[C@@H]1Cc2c(cc([N+](=O)[O-])cc2[N+](=O)[O-])[C@H](O)[C@]12C(=O)Nc1ccc(Br)cc12,"Tyrosine-protein kinase ABL1, phosphorylated (ABL1, Homo sapiens, UniProt P00519)","binding, competition with immobilised ligand",,0.1 µM,,remaining binding,90%
COc1cc(Nc2nc(C)cc(-c3cnn4nc(OC)ccc34)n2)cc(C(F)(F)F)c1,"Cyclin-dependent kinase 2 homolog (CRK2, Plasmodium falciparum, UniProt P61075)",KINOMEscan binding,,1000 nM,relative to: control,remaining binding,100%
N[C@H](C(=O)N1CCCC1)C1CCN(c2nccc3c(-c4ncc(Cl)cc4Cl)cccc23)CC1,"Protein-arginine deiminase type-4 (PADI4, Homo sapiens, UniProt Q9UM07)",enzyme activity,,"0.03932 µM, low-affinity site, with: Ca2+ 0.25 mM",,kcat,0.405 s⁻¹ and 0.371 s⁻¹
CC(C)[C@H]1NC(=O)C[C@H]2/C=C/CCSSC[C@@H](NC1=O)C(=O)N[C@H](Cc1cccc3ccccc13)C(=O)NCC(=O)O2,"Insulin-like growth factor 1 receptor (IGF1R, Homo sapiens, UniProt P08069)","enzyme activity, inhibitor",,10 µM,,inhibition,0.8%
O=C1NC(=O)c2c1c1cc(F)c[n+]3c1c1c2c2cc(O)ccc2[n]1[Ru-4]312([N]=C=S)[S+]3CC[S+]1CC[S+]2CC3 (centres unmarked),"Serine/threonine-protein kinase PLK2 (PLK2, Homo sapiens, UniProt Q9NYY3)",enzyme activity,,"100 nM, human enzyme, with: 10 µM ATP",relative to: untreated,remaining activity,93%
CC[C@H](C)[C@H](NC(=O)[C@H](CCCNC(=N)N)NC(=O)[C@H](CCCNC(=N)N)NC(=O)[C@H](CC(C)C)NC(=O)[C@H](Cc1ccccc1)NC(=O)CNC(=O)CNC(=O)[C@@H](N)Cc1ccc(O)cc1)C(=O)N[C@@H](CCCNC(=N)N)C(=O)N1CCC[C@H]1C(=O)N[C@@H](CCCCN)C(=O)N[C@@H](CC(C)C)C(=O)N[C@@H](CCCCN)C(=O)O,"Probable G-protein coupled receptor 139 (GPR139, Homo sapiens, UniProt Q6DWJ6)","Gαi2 activation, agonist, BRET",HEK293T/17,40 µM,,Emax,75.1% and 82%
CC(C)CC(O)(CC(C)C)c1cn(C(=O)N2CCCC2)nn1,"Phospholipase DDHD1 (Ddhd1, Mus musculus, UniProt Q80YA3)","probe labelling, inhibitor, measured: Ddhd1","mouse, brain","i.p., 0.8 mg/kg, 4 h, single peptide","relative to: treated over vehicle mice, lower = stronger inhibition",activity ratio-of-ratios,1.01 and 1.17 and 1.48 and 1.27 and 1.35
COc1ccc(F)cc1S(=O)(=O)Nc1cnc2c(c1)C(=O)NCCO2,"Peroxisome proliferator-activated receptor gamma (PPARG, Homo sapiens, UniProt P37231)","ligand displacement, radioligand",,10 µM,,inhibition,-6%
CN(C)CCCSC(=S)N1CCN(C(=O)/C=C/c2coc3ccccc3c2=O)CC1,"Nucleoprotein (N, Tomato spotted wilt virus, UniProt P25999, Y184A)","binding, microscale thermophoresis",,7.812 µM,dose series,MST response,839 a.u.
CC#CC(=O)NC[C@H](NC(=O)[C@H](CC1CCCCC1)NC(=O)[C@H](CCC(N)=O)NC(C)=O)C(=O)N[C@@H](CC(C)C)C(=O)N[C@@H](Cc1ccccc1)C(=O)O,"Beta sliding clamp (Escherichia coli, UniProt P0A988)","binding, isothermal titration calorimetry",,37 °C,,ΔG,-10.1 kcal/mol

# For quick reference, copied from above:
Compound,target,assay,test system,conditions,how to read,measurement,value
O=C(N[C@@H]1c2ccccc2C[C@H]1N1CCCC1)c1ccc(-c2ccnc3[nH]ccc23)nc1,"Dual specificity mitogen-activated protein kinase kinase 4 (MAP2K4, Homo sapiens, UniProt P45985)","binding, competition with immobilised ligand",,3 µM,,remaining binding,56%
CN(C)[C@H]1C[C@@]23CC[C@@]4(O2)C(=CC[C@]2(C)[C@@H](c5ccc6ccncc6c5)CC[C@H]24)C=C3[C@@H](O)[C@@H]1O,"Serine/threonine-protein kinase N1 (PKN1, Homo sapiens, UniProt Q16512)","ATP probe labelling, inhibitor, KiNativ profiling",,0.1 µM,,inhibition,-3.5%
